Measurements pooled from the literature.
Protocols differ between the studies behind these lines. Numbers after ± are the reported error. In brackets after ≈: the same amount, converted by molar mass.
ache: Acetylcholinesterase (ache, Electrophorus electricus, UniProt O42275)
Salicylate synthetase, Irp9: Salicylate synthetase, Irp9 (Yersinia enterocolitica, UniProt Q9X9I8)
NOX4: NADPH oxidase 4 (NOX4, Homo sapiens, UniProt Q9NPH5)
NOX1: NADPH oxidase 1 (NOX1, Homo sapiens, UniProt Q9Y5S8)
Neuronal acetylcholine receptor; alpha3/beta2: Neuronal acetylcholine receptor; alpha3/beta2 (Rattus norvegicus, UniProt P04757+P12390)
Chrna3/Chrnb2/Chrna6 with beta3 subunit: Chrna3/Chrnb2/Chrna6, with beta3 subunit (Rattus norvegicus, UniProt P04757+P12390+P43143)
CYBB: NADPH oxidase 2 (CYBB, Homo sapiens, UniProt P04839)

Chains of the proteins cited; added tags and fusions are not shown. Residues count along the entry.
UniProt O42275, 24-633 limits assumed: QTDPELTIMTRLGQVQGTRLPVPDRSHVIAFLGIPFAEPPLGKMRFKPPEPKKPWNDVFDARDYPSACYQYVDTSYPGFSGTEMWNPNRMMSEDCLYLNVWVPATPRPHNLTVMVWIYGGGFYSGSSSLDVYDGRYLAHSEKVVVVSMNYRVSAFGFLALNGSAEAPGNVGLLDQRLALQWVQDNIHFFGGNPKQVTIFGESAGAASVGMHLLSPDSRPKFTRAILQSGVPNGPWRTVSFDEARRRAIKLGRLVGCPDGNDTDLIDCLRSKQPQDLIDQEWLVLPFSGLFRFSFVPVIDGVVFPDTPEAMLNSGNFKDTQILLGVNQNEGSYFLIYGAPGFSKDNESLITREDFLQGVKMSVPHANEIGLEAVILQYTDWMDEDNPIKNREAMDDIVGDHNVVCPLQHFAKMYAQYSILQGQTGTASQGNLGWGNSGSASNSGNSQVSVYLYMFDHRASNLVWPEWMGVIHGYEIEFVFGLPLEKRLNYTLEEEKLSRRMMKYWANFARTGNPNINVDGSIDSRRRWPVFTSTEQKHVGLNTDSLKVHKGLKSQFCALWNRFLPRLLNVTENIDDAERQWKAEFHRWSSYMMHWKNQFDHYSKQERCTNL
UniProt Q9X9I8, 1-434: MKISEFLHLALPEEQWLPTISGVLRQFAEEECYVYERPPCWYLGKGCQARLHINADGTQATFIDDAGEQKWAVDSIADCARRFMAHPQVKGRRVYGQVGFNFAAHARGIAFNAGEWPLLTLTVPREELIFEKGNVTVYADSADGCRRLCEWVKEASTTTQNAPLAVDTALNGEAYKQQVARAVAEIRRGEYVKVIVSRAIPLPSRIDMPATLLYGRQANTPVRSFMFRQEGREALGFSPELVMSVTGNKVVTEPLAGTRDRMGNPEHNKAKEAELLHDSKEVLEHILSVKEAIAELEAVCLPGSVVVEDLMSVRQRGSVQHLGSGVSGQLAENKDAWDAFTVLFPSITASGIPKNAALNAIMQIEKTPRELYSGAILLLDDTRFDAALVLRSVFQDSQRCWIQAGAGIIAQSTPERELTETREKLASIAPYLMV
UniProt Q9NPH5, whole entry: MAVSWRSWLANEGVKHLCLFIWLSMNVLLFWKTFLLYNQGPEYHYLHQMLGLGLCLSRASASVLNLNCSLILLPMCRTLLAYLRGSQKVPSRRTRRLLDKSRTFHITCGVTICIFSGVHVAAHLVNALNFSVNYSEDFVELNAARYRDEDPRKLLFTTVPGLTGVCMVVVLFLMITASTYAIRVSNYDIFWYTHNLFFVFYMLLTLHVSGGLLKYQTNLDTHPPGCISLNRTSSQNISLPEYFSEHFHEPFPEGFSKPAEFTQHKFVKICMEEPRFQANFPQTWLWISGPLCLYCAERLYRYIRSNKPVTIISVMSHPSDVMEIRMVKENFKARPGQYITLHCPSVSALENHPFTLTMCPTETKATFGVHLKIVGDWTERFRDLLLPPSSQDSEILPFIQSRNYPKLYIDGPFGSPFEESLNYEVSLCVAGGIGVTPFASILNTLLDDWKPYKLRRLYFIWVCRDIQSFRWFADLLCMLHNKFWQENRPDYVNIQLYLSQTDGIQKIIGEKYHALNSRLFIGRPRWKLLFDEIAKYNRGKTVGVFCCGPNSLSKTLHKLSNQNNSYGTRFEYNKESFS
UniProt P04757, 26-499 limits assumed: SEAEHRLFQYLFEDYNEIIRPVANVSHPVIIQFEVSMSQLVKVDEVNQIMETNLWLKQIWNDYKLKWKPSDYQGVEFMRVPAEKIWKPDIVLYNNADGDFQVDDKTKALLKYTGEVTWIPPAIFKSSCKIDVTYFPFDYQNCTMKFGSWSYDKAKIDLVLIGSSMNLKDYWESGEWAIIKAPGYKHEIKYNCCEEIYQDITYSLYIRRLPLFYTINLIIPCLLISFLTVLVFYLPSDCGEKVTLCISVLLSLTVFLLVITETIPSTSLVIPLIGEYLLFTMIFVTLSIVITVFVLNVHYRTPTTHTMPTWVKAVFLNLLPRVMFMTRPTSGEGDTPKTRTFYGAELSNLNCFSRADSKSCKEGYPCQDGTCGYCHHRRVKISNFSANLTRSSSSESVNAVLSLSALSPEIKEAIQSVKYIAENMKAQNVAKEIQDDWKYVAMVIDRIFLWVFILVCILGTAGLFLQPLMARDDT
UniProt P04757, whole entry, looked up: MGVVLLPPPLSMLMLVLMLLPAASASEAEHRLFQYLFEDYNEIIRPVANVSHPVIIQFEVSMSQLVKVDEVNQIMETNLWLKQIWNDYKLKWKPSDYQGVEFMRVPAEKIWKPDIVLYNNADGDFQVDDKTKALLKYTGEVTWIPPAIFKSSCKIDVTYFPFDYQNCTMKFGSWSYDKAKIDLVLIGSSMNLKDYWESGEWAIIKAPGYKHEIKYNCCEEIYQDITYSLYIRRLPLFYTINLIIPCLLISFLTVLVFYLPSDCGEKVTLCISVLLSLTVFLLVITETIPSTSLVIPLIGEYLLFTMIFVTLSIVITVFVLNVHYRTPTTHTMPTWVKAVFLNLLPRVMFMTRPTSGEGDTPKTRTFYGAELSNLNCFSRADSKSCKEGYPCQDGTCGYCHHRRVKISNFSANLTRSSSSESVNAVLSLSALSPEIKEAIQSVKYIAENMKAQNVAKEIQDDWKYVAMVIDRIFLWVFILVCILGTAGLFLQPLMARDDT
UniProt P12390, 25-500 limits assumed: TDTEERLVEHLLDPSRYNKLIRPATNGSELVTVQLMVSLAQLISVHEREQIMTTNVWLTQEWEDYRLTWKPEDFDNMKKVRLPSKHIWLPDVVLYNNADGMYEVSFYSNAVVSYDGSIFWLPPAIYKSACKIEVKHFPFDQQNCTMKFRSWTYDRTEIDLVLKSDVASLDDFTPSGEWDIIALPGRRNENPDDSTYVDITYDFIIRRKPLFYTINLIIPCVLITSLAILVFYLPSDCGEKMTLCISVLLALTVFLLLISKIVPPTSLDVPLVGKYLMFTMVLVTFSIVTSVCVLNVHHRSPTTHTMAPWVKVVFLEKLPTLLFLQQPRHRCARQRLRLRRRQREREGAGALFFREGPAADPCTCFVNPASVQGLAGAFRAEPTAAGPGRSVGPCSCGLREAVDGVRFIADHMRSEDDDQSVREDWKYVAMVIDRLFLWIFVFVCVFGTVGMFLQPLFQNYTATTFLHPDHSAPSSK
UniProt P12390, whole entry, looked up: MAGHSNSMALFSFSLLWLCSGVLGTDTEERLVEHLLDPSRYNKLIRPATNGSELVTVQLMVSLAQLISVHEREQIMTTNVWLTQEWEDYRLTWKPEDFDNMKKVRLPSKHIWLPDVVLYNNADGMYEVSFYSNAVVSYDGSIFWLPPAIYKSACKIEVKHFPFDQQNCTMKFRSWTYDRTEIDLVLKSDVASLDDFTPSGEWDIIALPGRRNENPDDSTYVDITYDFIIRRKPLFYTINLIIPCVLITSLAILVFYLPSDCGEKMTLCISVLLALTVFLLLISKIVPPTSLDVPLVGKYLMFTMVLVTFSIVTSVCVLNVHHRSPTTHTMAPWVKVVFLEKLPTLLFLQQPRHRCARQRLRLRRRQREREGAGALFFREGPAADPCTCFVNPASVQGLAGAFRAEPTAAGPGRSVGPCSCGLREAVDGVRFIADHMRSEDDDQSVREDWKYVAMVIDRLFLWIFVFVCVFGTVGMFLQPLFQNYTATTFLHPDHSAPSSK
UniProt P43143, whole entry M241L/F253L/V303I/V320I/I327V/A333T/K339T, looked up: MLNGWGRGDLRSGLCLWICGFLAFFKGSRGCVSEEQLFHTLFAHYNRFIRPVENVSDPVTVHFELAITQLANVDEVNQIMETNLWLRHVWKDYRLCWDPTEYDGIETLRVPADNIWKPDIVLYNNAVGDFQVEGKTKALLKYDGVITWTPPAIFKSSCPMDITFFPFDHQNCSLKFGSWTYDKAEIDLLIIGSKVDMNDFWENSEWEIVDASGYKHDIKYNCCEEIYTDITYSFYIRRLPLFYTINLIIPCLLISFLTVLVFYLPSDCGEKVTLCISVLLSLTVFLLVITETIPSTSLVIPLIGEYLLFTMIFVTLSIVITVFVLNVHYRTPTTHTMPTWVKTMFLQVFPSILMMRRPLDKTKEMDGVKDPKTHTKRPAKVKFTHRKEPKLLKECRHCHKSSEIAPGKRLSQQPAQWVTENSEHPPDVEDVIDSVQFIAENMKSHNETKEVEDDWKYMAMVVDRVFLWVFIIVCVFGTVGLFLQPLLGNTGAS
UniProt P04839, whole entry, looked up: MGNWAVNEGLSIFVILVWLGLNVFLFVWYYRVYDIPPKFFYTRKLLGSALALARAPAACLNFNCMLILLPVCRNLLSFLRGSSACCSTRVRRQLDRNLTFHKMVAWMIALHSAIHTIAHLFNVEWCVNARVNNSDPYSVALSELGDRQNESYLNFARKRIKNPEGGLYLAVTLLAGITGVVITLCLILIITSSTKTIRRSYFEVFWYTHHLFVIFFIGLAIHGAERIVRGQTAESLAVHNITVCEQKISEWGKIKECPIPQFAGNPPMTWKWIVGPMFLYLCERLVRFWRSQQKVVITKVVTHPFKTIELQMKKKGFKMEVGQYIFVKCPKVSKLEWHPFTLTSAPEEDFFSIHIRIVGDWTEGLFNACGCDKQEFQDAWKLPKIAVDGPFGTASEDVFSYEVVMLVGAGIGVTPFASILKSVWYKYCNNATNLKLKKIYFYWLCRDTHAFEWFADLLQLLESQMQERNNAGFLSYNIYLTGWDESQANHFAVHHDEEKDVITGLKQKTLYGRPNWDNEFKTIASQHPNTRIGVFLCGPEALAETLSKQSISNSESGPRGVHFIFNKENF
UniProt P48169, whole entry, looked up: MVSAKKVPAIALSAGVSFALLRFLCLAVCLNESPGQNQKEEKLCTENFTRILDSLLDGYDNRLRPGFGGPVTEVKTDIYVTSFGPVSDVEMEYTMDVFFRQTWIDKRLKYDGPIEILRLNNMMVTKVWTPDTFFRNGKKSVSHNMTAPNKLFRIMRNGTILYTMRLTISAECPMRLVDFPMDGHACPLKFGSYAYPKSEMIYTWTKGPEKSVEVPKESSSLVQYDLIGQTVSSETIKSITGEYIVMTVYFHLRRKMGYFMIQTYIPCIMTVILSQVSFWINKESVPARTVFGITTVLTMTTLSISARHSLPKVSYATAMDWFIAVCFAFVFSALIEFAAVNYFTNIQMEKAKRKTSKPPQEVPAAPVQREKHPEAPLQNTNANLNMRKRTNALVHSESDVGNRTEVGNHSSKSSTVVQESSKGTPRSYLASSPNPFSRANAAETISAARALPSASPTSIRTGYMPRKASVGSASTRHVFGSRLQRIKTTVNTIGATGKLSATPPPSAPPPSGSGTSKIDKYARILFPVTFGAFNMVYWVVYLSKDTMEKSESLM
UniProt P22303, 32-617 isoform 2 limits assumed: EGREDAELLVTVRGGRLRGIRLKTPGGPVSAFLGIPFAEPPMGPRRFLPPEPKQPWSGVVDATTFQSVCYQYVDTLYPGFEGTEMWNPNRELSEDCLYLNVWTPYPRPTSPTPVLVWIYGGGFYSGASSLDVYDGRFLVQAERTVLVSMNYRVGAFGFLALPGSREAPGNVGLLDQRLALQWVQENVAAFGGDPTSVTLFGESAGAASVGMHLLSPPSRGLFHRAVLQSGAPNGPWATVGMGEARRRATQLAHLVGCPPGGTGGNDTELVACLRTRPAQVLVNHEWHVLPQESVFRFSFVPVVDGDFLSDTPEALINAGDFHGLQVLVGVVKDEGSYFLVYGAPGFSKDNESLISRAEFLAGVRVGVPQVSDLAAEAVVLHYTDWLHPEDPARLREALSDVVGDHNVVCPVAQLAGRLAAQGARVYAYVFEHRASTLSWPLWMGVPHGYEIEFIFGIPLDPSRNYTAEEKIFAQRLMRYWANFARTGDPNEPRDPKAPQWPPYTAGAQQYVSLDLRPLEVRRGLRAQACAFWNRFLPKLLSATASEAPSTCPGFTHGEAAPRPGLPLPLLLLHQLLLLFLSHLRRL
UniProt Q96SB4, whole entry: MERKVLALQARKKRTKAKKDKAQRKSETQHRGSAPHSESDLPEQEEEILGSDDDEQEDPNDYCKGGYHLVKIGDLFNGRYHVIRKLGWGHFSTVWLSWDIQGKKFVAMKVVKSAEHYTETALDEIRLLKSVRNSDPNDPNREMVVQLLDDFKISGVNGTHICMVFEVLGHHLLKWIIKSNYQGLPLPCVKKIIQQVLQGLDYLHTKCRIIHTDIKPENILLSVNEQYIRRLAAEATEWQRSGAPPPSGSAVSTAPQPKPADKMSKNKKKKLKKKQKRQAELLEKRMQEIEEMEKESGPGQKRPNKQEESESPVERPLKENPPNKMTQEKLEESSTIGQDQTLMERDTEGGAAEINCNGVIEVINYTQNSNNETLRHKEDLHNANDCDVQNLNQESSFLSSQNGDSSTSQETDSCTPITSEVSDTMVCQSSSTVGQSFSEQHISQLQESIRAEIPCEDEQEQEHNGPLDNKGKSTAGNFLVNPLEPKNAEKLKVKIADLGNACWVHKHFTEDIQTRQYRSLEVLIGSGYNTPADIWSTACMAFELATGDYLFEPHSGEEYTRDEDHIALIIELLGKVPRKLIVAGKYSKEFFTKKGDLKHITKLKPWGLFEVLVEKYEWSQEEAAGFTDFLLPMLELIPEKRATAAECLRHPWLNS

CC(C)(C)CCOC(=O)Cc1ccccc1Nc1c(Cl)cccc1Cl — IC50 (ache; enzyme activity, inhibitor, Ellman): 2690 ± 150 nM
N#Cc1c(-c2ccc(-c3no[n+]([O-])c3C#N)cc2)no[n+]1[O-] — IC50 (Thioredoxin glutathione reductase (Schistosoma mansoni, UniProt Q962Y6); enzyme activity, inhibitor): 1000 nM
C=C(C)[C@@H]1[C@H]2OC(=O)[C@@H]1[C@]1(O)C[C@H]3O[C@]34C(=O)O[C@H]2[C@]14C — IC50 (GABA A receptor alpha-4/beta-3/gamma-2 (Homo sapiens, UniProt P18507+P28472+P48169); chloride current, inhibitor, whole-cell voltage clamp; L929; 3 min preincubation, added: GABA at EC90): 3000 nM
O=C1N[C@@H]2C(=C[C@H](O)[C@@H](O)[C@H]2O)c2cc3c(c(O)c21)OCO3 — IC50 (EGFR (Homo sapiens, UniProt P00533, T790M/L858R); kinase activity, inhibitor, ADP-Glo): ~50 nM
c1ccc2c(NCCCNc3c4c(nc5ccccc35)CCCC4)c3c(nc2c1)CCCC3 — IC50 (MAOB (Homo sapiens, UniProt P27338); inhibitor): 116000 nM
CN(CCCl)Cc1cc(Cl)c(NC2=NCCN2)c(Cl)c1 — IC50 (KCNJ2 (Homo sapiens, UniProt P63252); inward current, inhibitor, automated patch clamp; 15 min, single concentration, at -120 mV): 46000 nM
O=C(O)c1cc(S(=O)(=O)Nc2ccccc2C(=O)O)ccc1Br — IC50 (Salicylate synthetase, Irp9; pyruvate production, inhibitor; 25 °C, added: chorismate 10 µM): > 160000 nM
C[Si](C)(C)CCOC(=O)Cc1ccccc1Nc1c(Cl)cccc1Cl — IC50 (ache; enzyme activity, inhibitor, Ellman): 2660 ± 250 nM
COc1cc2oc3ccc(O)cc3c(=O)c2c(OC)c1OC — IC50 (ACHE (Homo sapiens, UniProt P22303); enzyme activity, inhibitor): 13900 ± 1720 nM
CC#C/C(=N\OC[C@H]1COCCN1)c1ccc2ncnc(Nc3ccc(OCc4cccc(F)c4)c(Cl)c3)c2c1 — inhibition (SRPK1 (Homo sapiens, UniProt Q96SB4); kinase activity; 10 µM): 9.3%
Cc1cccc2oc(Sc3ncnc4c3nnn4Cc3ccccc3)nc12 — IC50 (NOX4; enzyme activity, inhibitor, Amplex Red; cell-free membranes): > 100000 nM
O=C(O)c1ccccc1[As](=O)(O)O — IC50 (SMPD1 (Homo sapiens, UniProt P17405); enzyme activity, inhibitor; pH 6.5, added: sphingomyelin substrate): 1700 nM
CCCN1CCN(c2ccc3c(c2)C2CC3CCN2C(=O)OCc2ccccc2)CC1 (stereo not shown) — Ki (DRD3 (Homo sapiens, UniProt P35462); binding, radioligand binding): 4430 nM
CC(C)C[C@@H]1NC(=O)[C@H](CCC(=O)O)NC(=O)[C@@H]2CCCN2C(=O)[C@H](Cc2c[nH]cn2)NC(=O)[C@H](CCCCC(=O)O)NC(=O)[C@H](CC(C)C)NC(=O)[C@H](Cc2c[nH]cn2)NC(=O)[C@@H]2CSSC[C@H](NC(=O)CN)C(=O)N[C@@H](CSSC[C@@H](C(N)=O)NC1=O)C(=O)N[C@@H](CO)C(=O)N[C@@H](Cc1c[nH]cn1)C(=O)N1CCC[C@H]1C(=O)N[C@@H](C)C(=O)N2 — IC50 (Neuronal acetylcholine receptor; alpha3/beta4 (Rattus norvegicus, UniProt P04757+P12392); ACh-evoked current, antagonist, two-electrode voltage clamp; Xenopus laevis oocytes; added: ACh 300 µM): 501 nM
Cc1cccc2nc(Sc3ncnc4c3nnn4Cc3ccccc3)oc12 — IC50 (NOX4; enzyme activity, inhibitor, Amplex Red; cell-free membranes): > 100000 nM
CSc1nc(Cl)cc(Sc2nnc(-c3cc(C(F)(F)F)cc(C(F)(F)F)c3)[nH]2)n1 — MIC (Escherichia coli; MC4100; 37 °C, added: PMBN 25 µg/mL): 2.6 µg/mL (≈ 5.51 µM)
CCC(C)C1NC(=O)/C(=C(/C)O)C1=O (stereo not shown) — IC50 (AHA2, C-terminal 40-residue truncation (Arabidopsis thaliana, UniProt P19456); ATP hydrolysis, inhibitor): 3700 nM
FC(F)(F)c1ccc2nc(Sc3ncnc4c3nnn4Cc3ccccc3)oc2c1 — IC50 (NOX1; enzyme activity, inhibitor, Amplex Red; cell-free membranes): 21000 ± 1000 nM
COC(=O)Oc1c([N+](=O)[O-])cc2oc(=O)sc2c1[N+](=O)[O-] — IC50 (Salicylate synthetase, Irp9; pyruvate production, inhibitor; 25 °C, added: chorismate 10 µM): 5000 ± 2000 nM
O=C(Cn1c(-c2ccccn2)nc2ccccc21)Nc1ccc2ccccc2c1 — IC50 (guaB (Vibrio cholerae, UniProt Q9KTW3); enzyme activity, inhibitor; added: 1 mM IMP): > 5000 nM
C[As](SC[C@H](NC(=O)CC[C@H](N)C(=O)O)C(=O)NCC(=O)O)SC[C@H](NC(=O)CC[C@H](N)C(=O)O)C(=O)NCC(=O)O — IC50 (NR3C1 (Homo sapiens, UniProt P04150); DNA binding, fluorescence polarization; added: FITC-labelled GRE DNA): 500 nM
CC[C@H](C)[C@@H]1NC(=O)[C@H](CCC(=O)O)NC(=O)[C@@H]2CCCN2C(=O)[C@H](Cc2c[nH]cn2)NC(=O)[C@H](CC(N)=O)NC(=O)[C@H](C(C)C)NC(=O)[C@H](CO)NC(=O)[C@@H]2CSSC[C@H](NC(=O)CN)C(=O)N[C@@H](CSSC[C@@H](C(N)=O)NC1=O)C(=O)N[C@@H](CO)C(=O)N[C@@H](Cc1c[nH]cn1)C(=O)N1CCC[C@H]1C(=O)N[C@@H](C)C(=O)N2 — IC50 (Neuronal acetylcholine receptor; alpha3/beta2; ion current, antagonist, two-electrode voltage clamp; Xenopus laevis oocytes; added: 100 µM acetylcholine): 6.41 nM
Cn1cnc2ncn(Cc3nc(CCc4ccc(Cl)cc4)no3)c(=O)c21 — IC50 (TRPA1 (Homo sapiens, UniProt O75762); calcium influx, antagonist, FlexStation calcium; HEK-293T transfected; added: CS gas at EC50): 260 nM
Clc1ccc2nc(Sc3ncnc4c3nnn4Cc3ccccc3)oc2c1 — IC50 (NOX4; enzyme activity, inhibitor, Amplex Red; cell-free membranes): > 100000 nM
O=C1S/C(=C/c2cc([N+](=O)[O-])cc([N+](=O)[O-])c2O)C(=O)N1c1ccccc1 — IC50 (Salicylate synthetase, Irp9; salicylate production, inhibitor; pH 7.5, 25 °C, added: chorismate 2 µM): 42000 ± 3000 nM
CC(C)[C@@H]1NC(=O)[C@H](CO)NC(=O)[C@@H]2CSSC[C@H](NC(=O)CN)C(=O)N[C@@H](CSSC[C@@H](C(N)=O)NC(=O)[C@H](CCCNC(=N)N)NC(=O)[C@H](CCC(=O)O)NC(=O)[C@@H]3CCCN3C(=O)[C@H](Cc3c[nH]cn3)NC(=O)[C@H](CC(N)=O)NC1=O)C(=O)N[C@@H](CO)C(=O)N[C@@H](Cc1c[nH]cn1)C(=O)N1CCC[C@H]1C(=O)N[C@@H](C)C(=O)N2 — IC50 (Chrna3/Chrnb2/Chrna6 with beta3 subunit; ion current, antagonist, two-electrode voltage clamp; Xenopus laevis oocytes; added: 100 µM acetylcholine): 54 nM
C[C@H](Cc1ccc(O)c(O)c1)[C@@H](C)Cc1ccc(O)c(O)c1 — total amount delivered (human skin; 3% w/v solution, 24 h): 37.5 ± 4.32 µg
O=[N+]([O-])c1cc(S(=O)(=O)c2cc([N+](=O)[O-])c(O)c([N+](=O)[O-])c2)cc([N+](=O)[O-])c1O — IC50 (Salicylate synthetase, Irp9; pyruvate production, inhibitor; 25 °C, added: chorismate 10 µM): > 160000 nM
Brc1ccc2nc(Sc3ncnc4c3nnn4Cc3ccccc3)oc2c1 — IC50 (CYBB; enzyme activity, inhibitor, MCLA chemiluminescence; cell-free membranes): > 100000 nM
CC(C)C[C@@H]1NC(=O)[C@H](CCC(=O)O)NC(=O)[C@@H]2CCCN2C(=O)[C@H](Cc2c[nH]cn2)NC(=O)[C@H](CC(N)=O)NC(=O)[C@H](C(C)C)NC(=O)[C@H]([C@@H](C)O)NC(=O)[C@@H]2CSSC[C@H](NC(=O)CN)C(=O)N[C@@H](CSSC[C@@H](C(N)=O)NC1=O)C(=O)N[C@@H](CO)C(=O)N[C@@H](Cc1c[nH]cn1)C(=O)N1CCC[C@H]1C(=O)N[C@@H](C)C(=O)N2 — IC50 (Chrna3/Chrnb2/Chrna6 with beta3 subunit; ion current, antagonist, two-electrode voltage clamp; Xenopus laevis oocytes; added: 100 µM acetylcholine): 5.12 nM
Cc1ccc2nc(Sc3ncnc4c3nnn4Cc3ccccc3)oc2c1 — IC50 (CYBB; enzyme activity, inhibitor, MCLA chemiluminescence; cell-free membranes): > 100000 nM
CC(C)C[C@@H]1NC(=O)[C@H](CCC(=O)O)NC(=O)[C@@H]2CCCN2C(=O)[C@H](Cc2c[nH]cn2)NC(=O)[C@H](CCCCCC(=O)O)NC(=O)[C@H](CC(C)C)NC(=O)[C@H](Cc2c[nH]cn2)NC(=O)[C@@H]2CSSC[C@H](NC(=O)CN)C(=O)N[C@@H](CSSC[C@@H](C(N)=O)NC1=O)C(=O)N[C@@H](CO)C(=O)N[C@@H](Cc1c[nH]cn1)C(=O)N1CCC[C@H]1C(=O)N[C@@H](C)C(=O)N2 — IC50 (Chrna3/Chrnb2/Chrna6 with beta3 subunit; ion current, antagonist, two-electrode voltage clamp; Xenopus laevis oocytes; added: 100 µM acetylcholine): 50.3 nM
COc1ccc2nc(Sc3ncnc4c3nnn4Cc3ccccc3)oc2c1 — IC50 (NOX1; enzyme activity, inhibitor, Amplex Red; cell-free membranes): > 100000 nM
CCCC[C@@H]1NC(=O)[C@H](CO)NC(=O)[C@@H]2CSSC[C@H](NC(=O)CN)C(=O)N[C@@H](CSSC[C@@H](C(N)=O)NC(=O)[C@H](CC(C)C)NC(=O)[C@H](CCC(=O)O)NC(=O)[C@@H]3CCCN3C(=O)[C@H](Cc3c[nH]cn3)NC(=O)[C@H](CC(N)=O)NC1=O)C(=O)N[C@@H](CO)C(=O)N[C@@H](Cc1c[nH]cn1)C(=O)N1CCC[C@H]1C(=O)N[C@@H](C)C(=O)N2 — IC50 (Neuronal acetylcholine receptor; alpha3/beta2; ion current, antagonist, two-electrode voltage clamp; Xenopus laevis oocytes; added: 100 µM acetylcholine): 9.29 nM
CCN1CCN(Cc2ccc(NC(=O)c3ccc(C)c(/C=C/c4cnc5[nH]ccc5c4OC)c3)cc2C(F)(F)F)CC1 — log2 fold change (PRKAR1A-RET fusion; kinase-CDC37 interaction, cell-based kinome screen; 5 µM; relative to: vehicle): -1.13
CC(C)C[C@@H]1NC(=O)[C@H](CCC(=O)O)NC(=O)[C@@H]2CCCN2C(=O)[C@H](Cc2c[nH]cn2)NC(=O)[C@H](CC(=O)O)NC(=O)[C@H](C(C)C)NC(=O)[C@H](CO)NC(=O)[C@@H]2CSSC[C@H](NC(=O)CN)C(=O)N[C@@H](CSSC[C@@H](C(N)=O)NC1=O)C(=O)N[C@@H](CO)C(=O)N[C@@H](Cc1c[nH]cn1)C(=O)N1CCC[C@H]1C(=O)N[C@@H](C)C(=O)N2 — IC50 (Neuronal acetylcholine receptor; alpha3/beta2; ion current, antagonist, two-electrode voltage clamp; Xenopus laevis oocytes; added: 100 µM acetylcholine): 54 nM
c1ccc(Cn2nnc3c(Sc4nc5ccccc5[nH]4)ncnc32)cc1 — IC50 (NOX4; enzyme activity, inhibitor, Amplex Red; cell-free membranes): > 100000 nM

Repeated from above:
Clc1ccc2nc(Sc3ncnc4c3nnn4Cc3ccccc3)oc2c1 — IC50 (NOX4; enzyme activity, inhibitor, Amplex Red; cell-free membranes): > 100000 nM
CC(C)C[C@@H]1NC(=O)[C@H](CCC(=O)O)NC(=O)[C@@H]2CCCN2C(=O)[C@H](Cc2c[nH]cn2)NC(=O)[C@H](CC(N)=O)NC(=O)[C@H](C(C)C)NC(=O)[C@H]([C@@H](C)O)NC(=O)[C@@H]2CSSC[C@H](NC(=O)CN)C(=O)N[C@@H](CSSC[C@@H](C(N)=O)NC1=O)C(=O)N[C@@H](CO)C(=O)N[C@@H](Cc1c[nH]cn1)C(=O)N1CCC[C@H]1C(=O)N[C@@H](C)C(=O)N2 — IC50 (Chrna3/Chrnb2/Chrna6 with beta3 subunit; ion current, antagonist, two-electrode voltage clamp; Xenopus laevis oocytes; added: 100 µM acetylcholine): 5.12 nM
COc1cc2oc3ccc(O)cc3c(=O)c2c(OC)c1OC — IC50 (ACHE (Homo sapiens, UniProt P22303); enzyme activity, inhibitor): 13900 ± 1720 nM
O=C1S/C(=C/c2cc([N+](=O)[O-])cc([N+](=O)[O-])c2O)C(=O)N1c1ccccc1 — IC50 (Salicylate synthetase, Irp9; salicylate production, inhibitor; pH 7.5, 25 °C, added: chorismate 2 µM): 42000 ± 3000 nM
CC(C)C[C@@H]1NC(=O)[C@H](CCC(=O)O)NC(=O)[C@@H]2CCCN2C(=O)[C@H](Cc2c[nH]cn2)NC(=O)[C@H](CCCCCC(=O)O)NC(=O)[C@H](CC(C)C)NC(=O)[C@H](Cc2c[nH]cn2)NC(=O)[C@@H]2CSSC[C@H](NC(=O)CN)C(=O)N[C@@H](CSSC[C@@H](C(N)=O)NC1=O)C(=O)N[C@@H](CO)C(=O)N[C@@H](Cc1c[nH]cn1)C(=O)N1CCC[C@H]1C(=O)N[C@@H](C)C(=O)N2 — IC50 (Chrna3/Chrnb2/Chrna6 with beta3 subunit; ion current, antagonist, two-electrode voltage clamp; Xenopus laevis oocytes; added: 100 µM acetylcholine): 50.3 nM
